# Measurements pooled from the literature.
# Each line is one published result; not all experiments were run side by side. Numbers after ± are the reported error.
Structure (SMILES),technique,sample,concentration,time,pH,temperature,fraction unbound
CC(C)Cn1c(SCC(=O)N2CCc3ccccc3C2)nc2cc(Cl)ccc2c1=O,equilibrium dialysis,rat plasma,,,,,0.001
CCN(CC)CC#CCNc1ccnc2cc(Cl)ccc12,equilibrium dialysis,CD-1 mouse plasma,1 µM,5 h,pH 7.4,,0.236
NC(=O)c1c(F)ccc(OCc2nc3cc(Cl)cnc3s2)c1F,equilibrium dialysis,mouse plasma,10 µM,,,,0.146
CCNCCOc1c(I)cc(C(=O)c2c(CCC(C)O)oc3ccccc23)cc1I (stereo not shown),ultracentrifugation,human liver microsomes 0.25 mg/mL protein,,2 h,pH 7.4,,0.17 ± 0.028
COC1C=COC2(C)Oc3c(C)c(O)c4c(c3C2=O)C2=NC3(CCN(CC(C)C)CC3)NC2=C(NC(=O)C(C)=CC=CC(C)C(O)C(C)C(O)C(C)C(OC(=O)Nc2cccnn2)C1C)C4=O (stereo not shown),,human plasma,,,,,0.103
O=C(Cc1ccccc1)Nc1nc2ccccc2n1Cc1ccccc1,ultrafiltration,mouse plasma,,30 min,,37 °C,41.3%
COC1C=COC2(C)Oc3c(C)c(O)c4c(c3C2=O)C2=NC3(CCN(CC(C)C)CC3)NC2=C(NC(=O)C(C)=CC=CC(C)C(O)C(C)C(O)C(C)C(OC(=O)c2cccnc2)C1C)C4=O (stereo not shown),,human plasma,,,,,0.039
O=C(N[C@@H](Cc1coc2ccccc12)B(O)O)[C@@H]1C[C@H]2CC[C@@H]1O2,,human plasma,,,,,0.027
CN1CCc2nc(C(=O)NC3CC(C(=O)O)CCC3NC(=O)C(=O)Nc3ccc(Cl)cn3)sc2C1 (stereo not shown),,plasma,,,,,~0.2
CC(NC(=O)OC1OC(C(=O)O)C(O)C(O)C1O)c1cc(Cl)ccc1Cn1c(=S)[nH]c(=O)c2[nH]ccc21 (stereo not shown),equilibrium dialysis,human plasma,10 µM,16 h,,37 °C,0.185 ± 0.014%
COc1ccc2c(c1OCc1ccccc1)C[C@@H](C(=O)O)N(c1nc3ccc(C#N)cc3o1)C2,equilibrium dialysis,human plasma,1 µM,6 h,pH 7.4,,< 0.001
COc1ccccc1NC(=O)OC1C(C)C(OC)C=COC2(C)Oc3c(C)c(O)c4c(c3C2=O)C2=NC3(CCN(CC(C)C)CC3)NC2=C(NC(=O)C(C)=CC=CC(C)C(O)C(C)C(O)C1C)C4=O (stereo not shown),,caseum,,,,,6e-05
Cc1ccc(O)c2c3c(nn12)CCC(C)(NC(=O)c1ccc(-n2cnc4cc(C(=O)O)ccc42)cc1Cl)C3 (stereo not shown),equilibrium dialysis,human plasma,,,,,0.0002
CCCCc1oc2ccccc2c1C(=O)c1cc(I)c(OCCN)c(I)c1,ultracentrifugation,human liver microsomes 0.25 mg/mL protein,,2 h,pH 7.4,,0.011 ± 0.003
COC1C=COC2(C)Oc3c(C)c(O)c4c(c3C2=O)C2=NC3(CCN(CC(C)C)CC3)NC2=C(NC(=O)C(C)=CC=CC(C)C(O)C(C)C(O)C(C)C(OC(=O)Nc2cnccn2)C1C)C4=O (stereo not shown),rapid equilibrium dialysis,mouse plasma,,,,,0.042
CCCCc1oc2ccccc2c1C(=O)c1cc(I)c(OCCO)c(I)c1,ultracentrifugation,human liver microsomes 0.25 mg/mL protein,,2 h,pH 7.4,,0.017 ± 0.001
CC(=O)c1cnc(N)nc1N1CC[C@H]1c1nn2ccc(Cl)c2c(=O)n1-c1ccccc1,equilibrium dialysis,human plasma,0.5-25 µM,,,,0.059 to 0.175
CO[C@H]1/C=C/O[C@@]2(C)Oc3c(C)c(O)c4c(c3C2=O)C2=NC3(CCN(CC(C)C)CC3)NC2=C(NC(=O)/C(C)=C\C=C\[C@H](C)[C@H](O)[C@@H](C)[C@@H](O)[C@@H](C)[C@H](OC(=O)c2cccc(F)c2)[C@@H]1C)C4=O,,plasma,,,,,0.02%
COC1C=COC2(C)Oc3c(C)c(O)c4c(c3C2=O)C2=NC3(CCN(CC(C)C)CC3)NC2=C(NC(=O)C(C)=CC=CC(C)C(O)C(C)C(O)C(C)C(OC(=O)Nc2cscn2)C1C)C4=O (stereo not shown),rapid equilibrium dialysis,mouse plasma,,,,,0.017
CSc1cc(C)[nH]c(=O)c1CN1CCc2c(Cl)c3c(c(C)c2C1=O)OC(C)(C1CCC(N(C)C)CC1)O3 (stereo not shown),,plasma,,,,,0.034
CCCCc1oc2ccccc2c1C(=O)c1cc(I)c(O)c(I)c1,ultracentrifugation,human plasma,,2 h,,,0.0013 ± 0.0001
COC1C=COC2(C)Oc3c(C)c(O)c4c(c3C2=O)C2=NC3(CCN(CC(C)C)CC3)NC2=C(NC(=O)C(C)=CC=CC(C)C(O)C(C)C(O)C(C)C(OC(=O)c2cncnc2)C1C)C4=O (stereo not shown),rapid equilibrium dialysis,mouse plasma,,,,,0.047

# For quick reference, copied from above:
Structure (SMILES),technique,sample,concentration,time,pH,temperature,fraction unbound
CCCCc1oc2ccccc2c1C(=O)c1cc(I)c(O)c(I)c1,ultracentrifugation,human plasma,,2 h,,,0.0013 ± 0.0001
O=C(N[C@@H](Cc1coc2ccccc12)B(O)O)[C@@H]1C[C@H]2CC[C@@H]1O2,,human plasma,,,,,0.027
